Measurements from different studies.
Every numbered part comes from another study and shows a few of its results, in no order. Positions count from the first letter of the parent shown.
UniProt P93022, sequence (whole entry, looked up): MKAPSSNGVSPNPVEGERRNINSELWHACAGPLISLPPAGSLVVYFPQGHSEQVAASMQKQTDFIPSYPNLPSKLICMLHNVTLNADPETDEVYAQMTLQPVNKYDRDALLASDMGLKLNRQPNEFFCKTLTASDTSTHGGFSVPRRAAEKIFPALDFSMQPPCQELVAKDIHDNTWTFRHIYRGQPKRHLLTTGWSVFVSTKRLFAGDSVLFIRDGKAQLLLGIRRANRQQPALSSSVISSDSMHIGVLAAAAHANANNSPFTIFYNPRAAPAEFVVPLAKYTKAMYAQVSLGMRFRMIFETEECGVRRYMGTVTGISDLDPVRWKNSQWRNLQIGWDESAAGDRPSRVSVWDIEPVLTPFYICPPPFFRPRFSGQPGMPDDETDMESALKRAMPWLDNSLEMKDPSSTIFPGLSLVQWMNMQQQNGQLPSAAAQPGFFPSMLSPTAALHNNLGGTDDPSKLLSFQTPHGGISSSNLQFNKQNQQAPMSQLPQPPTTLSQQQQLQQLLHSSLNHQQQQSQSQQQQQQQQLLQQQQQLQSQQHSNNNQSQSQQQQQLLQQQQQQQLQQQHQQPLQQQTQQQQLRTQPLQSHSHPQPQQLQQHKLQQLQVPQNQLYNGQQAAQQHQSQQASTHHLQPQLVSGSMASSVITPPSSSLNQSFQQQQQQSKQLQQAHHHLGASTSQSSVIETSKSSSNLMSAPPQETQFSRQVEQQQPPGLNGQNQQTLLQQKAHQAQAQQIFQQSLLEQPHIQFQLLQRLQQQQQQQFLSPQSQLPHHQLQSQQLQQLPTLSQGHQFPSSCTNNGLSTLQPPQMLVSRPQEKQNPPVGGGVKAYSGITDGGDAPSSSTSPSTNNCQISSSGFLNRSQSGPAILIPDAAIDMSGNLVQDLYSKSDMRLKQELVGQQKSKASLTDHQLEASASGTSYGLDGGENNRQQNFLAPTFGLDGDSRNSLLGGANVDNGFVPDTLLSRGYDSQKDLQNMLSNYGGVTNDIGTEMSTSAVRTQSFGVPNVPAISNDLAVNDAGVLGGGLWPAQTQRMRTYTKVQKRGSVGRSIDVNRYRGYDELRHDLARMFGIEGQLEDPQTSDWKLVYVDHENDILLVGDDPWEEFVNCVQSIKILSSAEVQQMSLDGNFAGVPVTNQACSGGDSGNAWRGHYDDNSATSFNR
UniProt Q9ZSY8, sequence (whole entry, looked up): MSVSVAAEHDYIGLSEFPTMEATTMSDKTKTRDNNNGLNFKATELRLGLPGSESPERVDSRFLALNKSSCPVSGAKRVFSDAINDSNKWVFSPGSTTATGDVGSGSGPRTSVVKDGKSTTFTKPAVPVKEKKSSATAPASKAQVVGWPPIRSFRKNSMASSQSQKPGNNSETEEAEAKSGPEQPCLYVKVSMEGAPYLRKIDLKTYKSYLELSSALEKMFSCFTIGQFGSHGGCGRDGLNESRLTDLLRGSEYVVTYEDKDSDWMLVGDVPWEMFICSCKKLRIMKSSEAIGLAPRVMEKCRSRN
UniProt O24409, sequence (whole entry, looked up): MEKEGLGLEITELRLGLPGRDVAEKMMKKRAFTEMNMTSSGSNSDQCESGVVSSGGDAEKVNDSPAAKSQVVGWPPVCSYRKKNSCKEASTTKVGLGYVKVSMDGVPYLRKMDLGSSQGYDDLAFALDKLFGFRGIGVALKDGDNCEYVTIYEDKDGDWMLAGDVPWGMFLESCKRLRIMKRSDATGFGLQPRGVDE
UniProt Q9C5X0, sequence (whole entry, looked up): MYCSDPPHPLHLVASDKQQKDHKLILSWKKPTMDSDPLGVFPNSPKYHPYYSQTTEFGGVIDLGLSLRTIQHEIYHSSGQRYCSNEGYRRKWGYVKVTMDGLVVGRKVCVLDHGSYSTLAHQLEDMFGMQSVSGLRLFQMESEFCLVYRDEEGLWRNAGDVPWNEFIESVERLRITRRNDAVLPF
UniProt Q8RYC6, sequence (whole entry, looked up): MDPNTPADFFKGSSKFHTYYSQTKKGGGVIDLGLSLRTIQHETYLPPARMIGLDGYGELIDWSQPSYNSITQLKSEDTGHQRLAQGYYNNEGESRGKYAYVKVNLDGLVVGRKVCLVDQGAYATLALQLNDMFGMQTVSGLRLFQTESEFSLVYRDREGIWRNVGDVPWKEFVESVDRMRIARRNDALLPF
UniProt P93830, sequence (whole entry, looked up): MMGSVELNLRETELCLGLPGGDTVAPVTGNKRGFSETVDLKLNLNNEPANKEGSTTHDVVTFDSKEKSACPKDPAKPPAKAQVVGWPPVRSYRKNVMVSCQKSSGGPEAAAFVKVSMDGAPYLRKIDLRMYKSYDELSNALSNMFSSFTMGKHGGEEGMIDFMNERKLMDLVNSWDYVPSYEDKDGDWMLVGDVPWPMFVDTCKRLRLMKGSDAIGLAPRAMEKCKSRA

Set 1 — target: TEF, bZIP domain (human); method: DHFR protein complementation; medium: yeast; baseline: wild-type JUN-FOS pair; reading: higher = stronger binding
Setting: single substitutions, most at no-binding floor
Parent: JUN, bZIP domain (human); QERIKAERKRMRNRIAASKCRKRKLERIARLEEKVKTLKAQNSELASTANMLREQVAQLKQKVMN; partner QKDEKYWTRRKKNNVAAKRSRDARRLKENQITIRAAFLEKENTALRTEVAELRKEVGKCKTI
Variant | binding fitness [natural log]
K34A | -1.28
L52Q | -1.57
R30V | -1.44
N42Q | -1.56
L45Q | -1.5
Q55A | -1.19
L38D | -1.52
A46S | -1.47
E54V | -1.11
A46G | -1.47
M51D | -1.35
E44A | -1.37
Q41S | -1.49
A46W | -1.54
A29P | -1.46
L45G | -1.51

Set 2 — target: CCNA2, cyclin fold, Cln2 fusion (human); method: yeast growth competition, sequencing; medium: yeast; setting: strong parent motif; baseline: not given; reading: higher = stronger binding
Parent: CABLES2 docking peptide (human); ICAKRSLCAAFSV; partner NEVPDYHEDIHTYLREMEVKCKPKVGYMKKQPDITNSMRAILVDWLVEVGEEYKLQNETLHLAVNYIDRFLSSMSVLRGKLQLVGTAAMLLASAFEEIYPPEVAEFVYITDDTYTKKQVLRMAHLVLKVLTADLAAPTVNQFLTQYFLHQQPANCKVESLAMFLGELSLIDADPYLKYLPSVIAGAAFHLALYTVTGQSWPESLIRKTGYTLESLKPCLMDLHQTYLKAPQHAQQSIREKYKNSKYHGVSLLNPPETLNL
Variant | normalised enrichment score
S12A | 2.73
I1A | 2.16
L7A | 0.174
F11A | 0.46
K4A | 0.716

Set 3 — method: RNA Bind-n-Seq; form: RNA; medium: in vitro; concentration: not given; baseline: input RNA pool; reading: higher = stronger binding
Target: RING finger protein unkempt homolog, zinc fingers 1-6, GST-SBP tag (UNK, Homo sapiens, UniProt Q9C0B0, residues 30-357)
Setting: RNA with constant flanks, human-mouse chimeric sites, ends assumed
All sequences stand within: GGGAGUUCUACAGUCCGACGAUC … CAACAGAGGAUUGAGCAUCA
Target sequence (chain): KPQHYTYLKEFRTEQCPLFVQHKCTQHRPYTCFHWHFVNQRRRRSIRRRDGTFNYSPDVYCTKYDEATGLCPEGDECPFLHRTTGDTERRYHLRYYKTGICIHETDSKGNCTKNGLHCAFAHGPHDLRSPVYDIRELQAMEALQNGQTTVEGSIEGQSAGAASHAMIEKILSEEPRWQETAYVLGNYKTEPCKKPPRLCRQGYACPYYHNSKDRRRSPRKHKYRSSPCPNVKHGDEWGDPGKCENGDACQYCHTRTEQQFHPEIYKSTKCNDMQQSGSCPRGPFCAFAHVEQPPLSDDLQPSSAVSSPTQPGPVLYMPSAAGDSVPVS
Sequence | bound/input enrichment
UUUGUAUUCAUGUUAAGCACACGUGCUGGUGGUCUUGGCAUCAAUCUUGCAACUGCUGAUGUAGUCAUUUUAUAUGACUCAGAUUGGAAUCCGCAAGUUGAUCUUCAGGCUAUGGACCGU | 0.214 ratio
GUAAUGGACGUCAACACUGCUCUACAAGAGGUUCUGAAGACCGCCCUCAUCCACGAUGGCCUAGCACGUGGCAUACGCGAAGCUGCCAAAGCCUUAGACAAGCGCCAAGCCCAUCUUUGU | 0.103 ratio
CUGAGGAUACCACUGAAGAGACCUUAAAAGGAGUCAUUGAGGGCUCUGUUCGUGCAAGAAUAGUCACUGAUCGGGAAACUGGUUCUUCCAAAGGGUUUUGGUUUUGUGACUUUAAUAGUG | 0.453 ratio
UGUGAACUGUCUCUUGAGAUCUAAAAAAAACAUGAUUUUUCCUGGCACAUAUUCCAAAGCAAAGACUUUGUUGCCUGCUGCUUCUUGUCUAAUUUACAGGGAUAUUUAAUUUUGUCAGGU | 0.171 ratio
CUCAGAGAUGUGGCAUAUCAGUAUGUGAAAAAGGGGGCUCGUAUAUUUGUGGAAGGGAAAAUAGACUAUGGCGAGUACAUGGAUAAAAACAAUGUGAGGCGGCAAGCAACAACAAUCAUA | 0.425 ratio
ACUCAGAGAUCCACCUCCCAAAGUGCUGGGAGUAAAGGUGUGGCCACCACACCUAACUUCAUAGACAUAUAUUUUUUUUAAUAUGAAUCUUCCUGUUCUUCAUCCAGAGAAAGAUUUGUU | 3.54 ratio
AAAUUUCCCCUCCUGAGACCUCCUCCGAAGUUGGAGUCUCUUACAGAUGCCUCAUCCCCUGUUAGCGUUUUAGUUUGGACCACCCAGCCUUGGACAAUUCCCGCCAAUGAAGCUGUUUGC | 2.38 ratio
CAGUCCCGCGACAGCGUUGCAGGACGAUGUGAACAAAAACUCAAAGCGGACCCUCUAUUGUAGUUCUUUUUUUAAAUAAUGUGCUAUUAUUGUUUGUCUUUUUUUUUUUUUUUUUAAAGA | 2.72 ratio
CUGUUUUACAGCCACACCAAUCUUGGCAUGUAUUAAGGAAAAAAAAAAUCCCUGUUGAAGUAGUUUUUCCACCUAUCAGCACUGAGUAAAUGCCAUAACUCCGCGGAAAUGGUCUAAAUA | 0.229 ratio
GGAUUCCGCUUCCGGUUCCGUUGGGCUCGGUUCUCUCCUGAGCUACGUGUCUCUACGCUCUCAAUCCGCCAUCCAACAAACAUGGAUCAGGUAAUGCAGUUUGUGGAGCCCAGCCGGCAG | 0.0536 ratio
AAAGAACUUGCUGAUGAUGAAGAUGAGGAAGACAAUGAUGAUGUUGAACCCAUUUCUGAAUUUAGAUUUGUGCCCAGUGAUAAGUCAGCAUUGGAGGCGAUGUUCACAGCAAUGUGUGAG | 1.13 ratio

Set 4 — Sequence: B1 (IAA15); method: two-hybrid; reading: higher = firmer interaction
B1: IAA15 (Arabidopsis thaliana, UniProt Q9C966); chain MSPEEYVRVWPDSGDLGGTELTLALPGTPTNASEGPKKFGNKRRFLETVDLKLGEAHENNYISSMVTNDQLVGWPPVATARKTVRRKYVKVALDGAAYLRKVDLGMYDCYGQLFTALENMFQGIITICRVTELERKGEFVATYEDKDGDLMLVGDVPWMMFVESCKRMRLMKTGDAIGL
partner | baseline | positive tests
IAA32 (Arabidopsis thaliana, UniProt Q8RYC6) | out of 4 tests | 2
IAA27 (Arabidopsis thaliana, UniProt Q9ZSY8) | out of 2 tests | 0
ARF7 1030-1164 (Arabidopsis thaliana, UniProt P93022) | out of 4 tests | 3
IAA19 (Arabidopsis thaliana, UniProt O24409) | out of 4 tests | 3
IAA34 (Arabidopsis thaliana, UniProt Q9C5X0) | out of 4 tests | 3
IAA17 (Arabidopsis thaliana, UniProt P93830) | out of 4 tests | 3

Some of these lines once more (set 3):
Sequence | bound/input enrichment
CUCAGAGAUGUGGCAUAUCAGUAUGUGAAAAAGGGGGCUCGUAUAUUUGUGGAAGGGAAAAUAGACUAUGGCGAGUACAUGGAUAAAAACAAUGUGAGGCGGCAAGCAACAACAAUCAUA | 0.425 ratio
GUAAUGGACGUCAACACUGCUCUACAAGAGGUUCUGAAGACCGCCCUCAUCCACGAUGGCCUAGCACGUGGCAUACGCGAAGCUGCCAAAGCCUUAGACAAGCGCCAAGCCCAUCUUUGU | 0.103 ratio
UUUGUAUUCAUGUUAAGCACACGUGCUGGUGGUCUUGGCAUCAAUCUUGCAACUGCUGAUGUAGUCAUUUUAUAUGACUCAGAUUGGAAUCCGCAAGUUGAUCUUCAGGCUAUGGACCGU | 0.214 ratio
